Measured values of several laboratories.
Lines come from different studies, so protocols differ. ± gives the spread as reported. Where no end group is shown, it is not given here.
Protein farnesyltransferase: Protein farnesyltransferase (Homo sapiens, UniProt P49354+P49356)
UGT1A9: UDP-glucuronosyltransferase 1A9 (UGT1A9, Homo sapiens, UniProt O60656)
SLC10A1: Hepatic sodium/bile acid cotransporter (SLC10A1, Homo sapiens, UniProt Q14973)
CXCR4: C-X-C chemokine receptor type 4 (CXCR4, Homo sapiens, UniProt P61073)
ALB: Albumin (ALB, Homo sapiens, UniProt P02768)
chemosensory protein 1: chemosensory protein 1 (Chilo suppressalis, UniProt V9PY22)
T1: RNA aptamer del A43; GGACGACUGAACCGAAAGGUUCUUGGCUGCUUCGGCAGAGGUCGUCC
B1: side-chain stapled; chain AACVSFQNLDCG (also: sidechain bridge or staple (positions not given here))

CLVL
relative fluorescence increase (Protein farnesyltransferase; enzyme activity, substrate, fluorimetric; peptide; 3 µM, 30 min, added: 9 µM farnesyl diphosphate; baseline: dansyl-GCVLS (set to 1.0)): < 0.05

COc1ccc(-c2coc3cc(O)cc(O)c3c2=O)cc1
Vmax (UGT1A9; substrate; pH 7.4, 37 °C): 379 pmol/mg/min

CILL
relative fluorescence increase (Protein farnesyltransferase; enzyme activity, substrate, fluorimetric; peptide; 3 µM, 30 min, added: 9 µM farnesyl diphosphate; baseline: dansyl-GCVLS (set to 1.0)): 0.15

COC(=O)C1=C(C)NC(C)=C(C(=O)OCCN(C)Cc2ccccc2)C1c1cccc([N+](=O)[O-])c1 (stereo not drawn)
taurocholate uptake (SLC10A1; inhibitor; HEK293 expressing NTCP; 100 µM, 5 min, added: taurocholate 10 µM; baseline: no compound): 81.8 ± 6.5%

CHPL
relative fluorescence increase (Protein farnesyltransferase; enzyme activity, substrate, fluorimetric; peptide; 3 µM, 30 min, added: 9 µM farnesyl diphosphate; baseline: dansyl-GCVLS (set to 1.0)): 0

CN(Cc1ccc(CN(C)c2ccc(F)cc2)cc1)c1ccc(F)cc1
lowest effective concentration (CXCR4; binding, competition binding; MDA-MB-231; semi-quantitative screen, added: biotinylated TN14003): 100 nM

COc1ccc(/C=C/c2ccc(B(O)O)cc2)cc1
binding enthalpy (ALB; fluorescence quenching, van't Hoff; concentration not given): -5.82 kJ/mol

O=C(Nc1cnccc1Cl)N1CCN(Cc2ccc3c(c2)OC(F)(F)O3)CC1
remaining activity (FAAH (Homo sapiens, UniProt O00519); human, leukocytes; oral, 10 to 100 mg once daily, 10 days, mean trough, added: [3H]-anandamide; baseline: predose): 0.58 to 10.5%

CN(Cc1cccc(CN(C)Cc2ccccc2F)n1)Cc1ccccc1F
lowest effective concentration (CXCR4; binding, competition binding; MDA-MB-231; semi-quantitative screen, added: biotinylated TN14003): 1000 nM

N#Cc1c(O)c2c(-c3ccc(-c4ccccc4O)cc3)csc2[nH]c1=O
Vmax (UGT1A9; substrate; pH 7.4, 37 °C): 10.8 pmol/mg/min

CSQL
relative fluorescence increase (Protein farnesyltransferase; enzyme activity, substrate, fluorimetric; peptide; 3 µM, 30 min, added: 9 µM farnesyl diphosphate; baseline: dansyl-GCVLS (set to 1.0)): 0

Tumor necrosis factor alpha
decrease in digoxin flux (P-glycoprotein (Bos taurus, UniProt A0A3Q1MB23); apical-to-basolateral transport; BME-UV monolayers; 200 ng/mL, 72 h, added: [3H]-digoxin 0.05 µM; baseline: unexposed monolayers): 43 ± 3%

COc1cc2c(NC3CCN(CCCC(=O)NCCCCCCC(=O)N[C@H](C(=O)N4C[C@H](O)C[C@H]4C(=O)NCc4ccc(-c5scnc5C)cc4)C(C)(C)C)CC3)nc(N3CCC(F)(F)CC3)nc2cc1OCCCN1CCCC1
degradation (EHMT2 (Homo sapiens, UniProt Q96KQ7); degrader, western blot; 0.3 µM, 24 h; baseline: DMSO): < 10%

O=c1ccn([C@@H]2O[C@H](COP(=O)(O)OP(=O)(O)O)[C@@H](O)[C@H]2O)c(=O)[nH]1
inhibitory concentration (galU (Streptococcus pneumoniae, UniProt A0A0H2ZMV4); enzyme activity, inhibitor; Streptococcus pneumoniae, extract of treated cells; 1 h, 37 °C): 5 µM

C=CC(C)=CCC=C(C)C
remaining 1-NPN fluorescence (chemosensory protein 1; binding, competitive ligand, fluorescence competitive binding; highest concentration tested, pH 7.4, protein 2 µM, added: 1-NPN 2 µM; baseline: no ligand): 73.9 ± 1.7%

O=C(O)c1ccc(NC(c2ccc(Br)cc2)c2ccc3cccnc3c2O)cc1 (stereo not drawn)
remaining activity (CAAX prenyl protease 2 (Homo sapiens, UniProt Q9Y256); enzyme activity, inhibitor; 10 µM): 23 to 32%

CC(C)[C@H]1CC[C@H](C(=O)N[C@H](Cc2ccccc2)C(=O)O)CC1
taurocholate uptake (SLC10A1; inhibitor; HEK293 expressing NTCP; 100 µM, 5 min, added: taurocholate 10 µM; baseline: no compound): 62 ± 1.4%

N.N.N.N.O=P(O)(O)OP(=O)(O)OP(=O)(O)OC[C@H]1O[C@@H](n2cnc3c(NC4CCCC4)ncnc32)[C@H](O)[C@@H]1O
breakthrough time change (Uracil nucleotide/cysteinyl leukotriene receptor, short isoform (GPR17, Homo sapiens, UniProt Q13304, R283I); frontal affinity chromatography-MS; mutated receptor IAM column; concentration not given; baseline: wild type column): 24.9%

Clc1ccc(COC(Cn2ccnc2)c2ccc(Cl)cc2Cl)cc1 (stereo not drawn)
taurocholate uptake (SLC10A1; inhibitor; NTCP-HEK293; 50 µM; baseline: without compound): 92.3 ± 4.5%

O=c1ccn([C@@H]2O[C@H](COP(=O)([O-])OP(=O)([O-])[O-])[C@@H](O)[C@H]2O)c(=O)[nH]1.[Na+].[Na+].[Na+]
breakthrough time (GPR17 (Homo sapiens, UniProt Q13304); frontal affinity chromatography-MS; immobilized on IAM column; 1 µM, compound mixture): 3.2 min

O=C(NCc1ccc(F)cc1)C1CCN(S(=O)(=O)c2cc(Cl)cc(Cl)c2)CC1
remaining activity (Na(+)/citrate cotransporter (Homo sapiens, UniProt Q86YT5); citrate uptake; HepG2; 10 µM, 24 h after washout, added: 10 mM LiCl; baseline: untreated): 18%

B1
selectivity ratio (DPP9 (Homo sapiens, UniProt Q86TI2); enzyme activity; 200 µM, 37 °C; baseline: FAPα over DPP9): 18 fold

C[N+](C)(C)CCOC(N)=O
GDP association slowing (Gi/o proteins; [3H]GDP binding SPA; CHO cell membranes; 100 µM, added: [3H]GDP 500 nM; baseline: control mono-exponential fit): 10 fold

CCC/C=C/CO
remaining 1-NPN fluorescence (chemosensory protein 1; binding, competitive ligand, fluorescence competitive binding; highest concentration tested, pH 7.4, protein 2 µM, added: 1-NPN 2 µM; baseline: no ligand): 89 ± 2.02%

CN(C)c1ccc2c(-c3ccc(C(=O)O)cc3C(=O)[O-])c3ccc(=[N+](C)C)cc-3oc2c1
Kd (T1, RNA aptamer del A43; fluorescence quenching titration; pH 7.5, 25 °C, NaCl 15 mM, no Mg2+): 1240 nM

CCCCCc1ccc(Oc2ccccc2)c(O)c1
dissociation rate constant (Enoyl-[acyl-carrier-protein] reductase [NADPH] FabI (Staphylococcus aureus, UniProt Q6GI75); enzyme activity, inhibitor, progress curve kinetics): 0.2 h⁻¹

O=C(Cn1ccc2ccccc21)N(c1ccc(F)cc1)c1ccc(F)cc1
maximum fold increase (Proteasome subunit alpha type-2/Proteasome subunit alpha type-6, 20S proteasome (Homo sapiens, UniProt P25787+P60900); proteolysis, activator, fluorogenic peptide; purified 20S proteasome; up to 30 µM, added: Suc-LLVY-AMC, Z-LLE-AMC, Boc-LRR-AMC; baseline: vehicle): 4.4

CHAL
relative fluorescence increase (Protein farnesyltransferase; enzyme activity, substrate, fluorimetric; peptide; 3 µM, 30 min, added: 9 µM farnesyl diphosphate; baseline: dansyl-GCVLS (set to 1.0)): 0

O=C1NC(=O)C(c2ccccc2)(c2ccccc2)N1
uptake inhibition (Monocarboxylate transporter 8 (SLC16A2, Rattus norvegicus, UniProt Q8K1P8); substrate, Xenopus oocytes; 9.09 µM, added: inhibitor 400 µM; baseline: water-injected oocytes): no effect

O=C(Nc1ccc2c(O)c(N=Nc3ccc(N=Nc4ccc(S(=O)(=O)[O-])cc4)cc3S(=O)(=O)[O-])c(S(=O)(=O)[O-])cc2c1)Nc1ccc2c(O)c(N=Nc3ccc(N=Nc4ccc(S(=O)(=O)[O-])cc4)cc3S(=O)(=O)[O-])c(S(=O)(=O)[O-])cc2c1.[Na+].[Na+].[Na+].[Na+].[Na+].[Na+]
Hill coefficient (ancestral DyP peroxidase wild type; peroxidase activity, substrate; pH 4.0, 25 °C, pH 4.5 for Mn2+): ~3

CC1=C(/C=C/C(C)=C/C=C/C(C)=C/C=C/C=C(C)/C=C/C=C(C)/C=C/C2=C(C)C[C@H](O)CC2(C)C)C(C)(C)C[C@H](O)C1
Kd (ALB; surface plasmon resonance; 25 °C): 2000 ± 30 nM

CN(Cc1ccc(CN(C)Cc2cccc(F)c2)cc1)Cc1cccc(F)c1
lowest effective concentration (CXCR4; binding, competition binding; MDA-MB-231; semi-quantitative screen, added: biotinylated TN14003): > 1000 nM

C[C@H](NC(=O)[C@H](CCCNC(=N)N)N(C)C(=O)[C@@H]1CCCN1C(=O)[C@H](CCCNC(=N)N)NC(=O)CNC(=O)c1ccc2c(c1)C1(OC2=O)c2ccc(O)cc2Oc2cc(O)ccc21)C(=O)N[C@@H](Cc1ccccc1)C(=O)N[C@H](C(=O)N[C@@H](Cc1ccccc1)C(=O)N[C@H](C)C(=O)N[C@@H](CCC(=O)O)C(=O)NCC(N)=O)[C@@H](C)O
time to half phosphorylation (AKT1 (Homo sapiens, UniProt P31749); substrate, CE-LIF; 25 µM, pH 7.0, 30 °C, enzyme 6 nM, added: ATP 1 mM): 306 min

Excerpt of the above:
O=C(NCc1ccc(F)cc1)C1CCN(S(=O)(=O)c2cc(Cl)cc(Cl)c2)CC1
remaining activity (Na(+)/citrate cotransporter (Homo sapiens, UniProt Q86YT5); citrate uptake; HepG2; 10 µM, 24 h after washout, added: 10 mM LiCl; baseline: untreated): 18%

O=C1NC(=O)C(c2ccccc2)(c2ccccc2)N1
uptake inhibition (Monocarboxylate transporter 8 (SLC16A2, Rattus norvegicus, UniProt Q8K1P8); substrate, Xenopus oocytes; 9.09 µM, added: inhibitor 400 µM; baseline: water-injected oocytes): no effect

CN(C)c1ccc2c(-c3ccc(C(=O)O)cc3C(=O)[O-])c3ccc(=[N+](C)C)cc-3oc2c1
Kd (T1, RNA aptamer del A43; fluorescence quenching titration; pH 7.5, 25 °C, NaCl 15 mM, no Mg2+): 1240 nM
